# Measurements pooled from the literature.
# Every numbered part comes from another study and shows a few of its results, in no order. Several values in a cell are separate wells, animals, samples, runs or records.

# Study 1 — organism: Arabidopsis thaliana; strain: Col-0; concentration: 50 µg/mL; notes: seed germination, single repetition
SMILES,hypocotyl length
O=C(O)C1Oc2cc(F)ccc2N(Cc2ccccc2)C1=O (stereo not shown),1.92 cm and 1.84 cm and 1.89 cm and 1.86 cm and 1.79 cm
CC(C)=CCN1C(=O)C(O)(C(=O)O)Oc2cc(F)ccc21 (stereo not shown),1.84 cm and 1.83 cm and 1.8 cm and 1.82 cm
COc1ccc2c(c1)OC(O)(C(=O)O)C(=O)N2Cc1ccccc1 (stereo not shown),1.34 cm and 1.32 cm and 1.35 cm
CC(C)(C)c1ccc(Oc2ccc3c(c2)OC(O)(C(=O)O)C(=O)N3Cc2ccccc2)cc1 (stereo not shown),1.65 cm and 1.61 cm and 1.62 cm and 1.64 cm
O=C(O)C1(O)Oc2cc(F)ccc2N(Cc2ccccc2)C1=O (stereo not shown),0.08 cm and 0.09 cm and 0.1 cm and 0.11 cm

# Study 2 — read-out: thermal unfolding; technique: differential scanning fluorimetry; concentration: 5.5 µM; reading: higher = more unfolded
# Structure (SMILES): C[C@@H]1CN(c2ccc(-c3cc(C(=O)NCCOCCOCCOCCOCCOCCOCCNC(=O)/C=C/c4[nH]cc(C(=O)N[C@@H](CC(N)=O)c5ccc(F)c(Cl)c5)c4-c4ccc(Cl)cc4F)ccc3F)cc2NC(=O)c2ccc(F)cc2C(F)(F)F)C[C@H](C)N1C
# WDR5: WD repeat-containing protein 5 (WDR5, Homo sapiens, UniProt P61964)
# DCAF1: DDB1- and CUL4-associated factor 1 (DCAF1, Homo sapiens, UniProt Q9Y4B6)
# Sequence of UniProt Q9Y4B6 (whole entry, looked up): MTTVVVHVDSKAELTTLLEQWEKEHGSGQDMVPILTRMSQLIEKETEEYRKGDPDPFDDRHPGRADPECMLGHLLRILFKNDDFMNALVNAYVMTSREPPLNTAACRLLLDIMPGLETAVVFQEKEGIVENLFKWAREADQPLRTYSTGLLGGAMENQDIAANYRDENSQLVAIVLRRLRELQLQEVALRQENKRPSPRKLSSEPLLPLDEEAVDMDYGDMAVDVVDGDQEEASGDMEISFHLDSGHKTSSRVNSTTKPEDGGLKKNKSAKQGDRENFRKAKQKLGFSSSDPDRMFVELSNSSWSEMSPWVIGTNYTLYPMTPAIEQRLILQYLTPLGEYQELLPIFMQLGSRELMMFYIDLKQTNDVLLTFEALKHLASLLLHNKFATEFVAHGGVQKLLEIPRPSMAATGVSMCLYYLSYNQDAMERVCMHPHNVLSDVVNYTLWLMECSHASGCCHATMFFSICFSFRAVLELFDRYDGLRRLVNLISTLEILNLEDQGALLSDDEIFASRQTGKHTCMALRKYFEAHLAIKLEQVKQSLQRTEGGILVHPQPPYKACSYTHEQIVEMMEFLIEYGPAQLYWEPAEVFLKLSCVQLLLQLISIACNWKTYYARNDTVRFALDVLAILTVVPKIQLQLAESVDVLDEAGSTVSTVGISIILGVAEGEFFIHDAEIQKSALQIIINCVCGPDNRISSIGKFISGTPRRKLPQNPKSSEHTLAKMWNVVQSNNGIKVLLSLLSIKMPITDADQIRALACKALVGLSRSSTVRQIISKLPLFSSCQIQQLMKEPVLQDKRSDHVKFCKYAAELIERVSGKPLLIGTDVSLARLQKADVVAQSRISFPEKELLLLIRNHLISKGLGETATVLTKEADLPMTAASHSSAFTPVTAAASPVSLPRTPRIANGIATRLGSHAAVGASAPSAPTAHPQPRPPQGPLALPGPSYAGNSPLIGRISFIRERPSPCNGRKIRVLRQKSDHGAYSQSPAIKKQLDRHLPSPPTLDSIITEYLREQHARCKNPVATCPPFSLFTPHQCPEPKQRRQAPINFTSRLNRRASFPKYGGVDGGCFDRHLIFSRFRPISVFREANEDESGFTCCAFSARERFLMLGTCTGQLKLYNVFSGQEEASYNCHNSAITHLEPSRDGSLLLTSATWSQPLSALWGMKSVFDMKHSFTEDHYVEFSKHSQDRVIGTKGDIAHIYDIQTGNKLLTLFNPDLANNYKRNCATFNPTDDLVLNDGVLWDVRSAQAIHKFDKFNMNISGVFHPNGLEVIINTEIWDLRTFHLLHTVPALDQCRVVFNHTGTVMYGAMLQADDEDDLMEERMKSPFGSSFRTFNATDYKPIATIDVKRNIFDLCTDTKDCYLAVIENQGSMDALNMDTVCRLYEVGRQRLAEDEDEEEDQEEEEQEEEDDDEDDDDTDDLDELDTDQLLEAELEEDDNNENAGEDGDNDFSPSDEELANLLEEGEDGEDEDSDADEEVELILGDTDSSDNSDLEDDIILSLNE
target,conditions,SYPRO Orange fluorescence [a.u.]
WDR5,77.01 °C,57000
WDR5,29 °C,13500
WDR5,39.2 °C,14000
DCAF1,92.21 °C,30700
DCAF1,67.41 °C,51000
DCAF1,75.41 °C,43400
WDR5,79.01 °C,62900
DCAF1,74.21 °C,44500
DCAF1,57.41 °C,36000
DCAF1,76.81 °C,42300
WDR5,38.6 °C,13900

# Other studies, line by line
SMILES,tested on,assay,system,conditions,scale,endpoint,value
Cc1ccc(O)c(C)c1-c1cnc2[nH]c(-c3cnc(N)nc3)cc2c1C#N,ABL1 non-phosphorylated human,KINOMEscan,,1000 nM,reference: control,binding remaining,21%
CCN1/C(=C/C=C2\CCCC(/C=C/C3=[N+](CC)c4ccccc4C3(C)C)=C2NCCCCCCCCN2CCC(Nc3nc4ccccc4n3Cc3ccc(F)cc3)CC2)C(C)(C)c2ccccc21,,,PBS,10 µM,reference: Cy5,fluorescence quantum yield,1.5
"Cc1ccc(O)c(C)c1-c1cnc2[nH]c(-c3cnc(N4CCC5(CC4)CC(N4CCN(c6ccc(N[C@H]7CCC(=O)NC7=O)cc6F)CC4)CO5)nc3)cc2c1C#N (single isomer, unassigned)",RAF1,KINOMEscan,,1000 nM,reference: control,remaining binding,28%
CCN1/C(=C/C=C2\CCCC(/C=C/C3=[N+](CC)c4ccccc4C3(C)C)=C2NCCCCN2CCC(Nc3nc4ccccc4n3Cc3ccc(F)cc3)CC2)C(C)(C)c2ccccc21,,,PBS,10 µM,reference: Cy5,fluorescence quantum yield,2.5%
Cc1ccc(O)c(C)c1-c1cnc2[nH]c(-c3cnc(N4CCC(CN5CCN(c6ccc7c(c6)CN(C6CCC(=O)NC6=O)C7=O)CC5)CC4)nc3)cc2c1C#N (stereo not shown),,,"female CD-1 mouse, plasma","oral, 10 mg/kg",,Cmax,279 ng/mL
Cc1ccc(O)c(C)c1-c1cnc2[nH]c(-c3cnc(N4CCC(CN5CCN(c6cc7c(cc6F)n(C6CCC(=O)NC6=O)c(=O)n7C)CC5)CC4)nc3)cc2c1C#N (stereo not shown),,,FeSSIF,"24 h, pH 5.0",,kinetic solubility,77 µM

# Some of these lines once more (study 2):
target,conditions,SYPRO Orange fluorescence [a.u.]
DCAF1,57.41 °C,36000
DCAF1,75.41 °C,43400
